Experimental data pooled from the literature.
Lines come from different studies, so protocols differ. ± gives the spread as reported.

COc1ccc(C2=NN(C3=NC(=O)C(=Cc4ccc(O)cc4)S3)C(c3ccc(F)cc3)C2)cc1 (stereo not shown) — cells in %G2/M phase (T47D; PI flow cytometry; concentration not given, 24 h): 5.24%
CC(Cc1ccc(Cl)cc1)=C(c1ccc(Cl)cc1)c1ccc(OCCN(C)C)cc1 — GI50 (SK-MEL-5; cell growth or viability, SRB): 4.4 µM
CC(=O)OC[C@H]1O[C@@H](Sc2sc(C(=O)c3ccc(C)cc3)c(N)c2-c2nc3ccccc3s2)[C@H](OC(C)=O)[C@@H](OC(C)=O)[C@H]1OC(C)=O — growth percent (786-0 renal cancer; SRB; 10 µM, 48 h): 89.1%
CCOC(=O)C1NC(c2ccc[n+](C)c2)C23c4c5c6c7c8c9c(c%10c%11c2c2c4c4c%12c5c5c6c6c8c8c%13c9c9c%10c%10c%11c%11c2c2c4c4c%12c%12c5c5c6c8c6c8c%13c9c9c%10c%10c%11c2c2c4c4c%12c5c6c5c8c9c%10c2c45)C713 (stereo not shown) — CC50 (BCBL1; cell growth or viability; 24 h): 10.9 µM
Cc1c(C)n(-c2c(C(C)C)cccc2C(C)C)c(=[Se])n1-c1c(C(C)C)cccc1C(C)C.[Cl][Au] — resistance factor (A2780 ADR; MTT; reference: A2780 ADR over A2780): 0.6
Cc1nn(-c2ccc(S(=O)(=O)N[C@H](CO)CC(C)C)cc2)c2nn3nnnc3nc12 — apoptotic cells (HT-29; AO/EB staining; 2 µM, 24 h): 32.4 ± 3.75%
CC(=O)OC[C@H]1O[C@@H](Sc2sc(C(=O)c3ccc(Br)cc3)c(N)c2-c2nc3ccccc3s2)[C@H](OC(C)=O)[C@@H](OC(C)=O)[C@H]1OC(C)=O — growth (NCI-H23; SRB; 10 µM, 48 h; reference: untreated): 88.4%
COc1cc(CN2CCN(c3ccccc3[N+](=O)[O-])CC2)c2cc3[n+](cc2c1O)CCc1cc2c(cc1-3)OCO2 — therapeutic index (Ca-Ski and MDCK; SRB; 48 h; reference: CC50 MDCK over IC50 Ca-Ski): 27.6
COc1cc(CNC(=O)C[C@H](C)CCC=C(C)C)ccc1OCc1cn(-c2cccc(Cl)c2)nn1 — growth percent (SK-MEL-5 melanoma cells; SRB; 10 µM, 48 h): 89.5%
N=C(N/N=C/c1ccc[nH]1)N/N=C/c1ccc[nH]1 — selectivity ratio (PANC-1; crystal violet; 72 h; reference: IC50 hTERT-HPNE over IC50 PANC-1): 18.1
COc1cc(CNC(=O)C[C@H](C)CCC=C(C)C)ccc1OCc1cn(-c2ccc([N+](=O)[O-])cc2)nn1 — growth percent (SK-MEL-5 melanoma cells; SRB; 10 µM, 48 h): 35.9%
CC(C)(C)c1nc(-c2cccc(NS(=O)(=O)c3c(F)cccc3F)c2F)c(-c2ccnc(N)n2)s1.Cc1[nH]c2ccccc2c1CCNCc1ccc(/C=C/C(=O)NO)cc1 — cells in S phase (C13; flow cytometry; concentration not given, 48 h, concentration about IC50): 2.82%
O=C(/C=C/c1ccc(Cl)cc1Cl)NO — LysoTracker signal (SK-N-BE(2)-C; flow cytometry; 5.0 µM, unit not given; reference: control): 1.5 ± 0.27
COc1cc(CNC(=O)C[C@H](C)CCC=C(C)C)ccc1OCc1cn(-c2ccc(Cl)cc2Cl)nn1 — growth percent (SK-OV-3 ovarian cancer cells; SRB; 10 µM, 48 h): 26.1%
CC(C)C[C@@H](NC(=O)[C@@H](CC(C)C)NC(=O)[C@@H](CO)NC(=O)[C@@H](Cc1c[nH]cn1)NC(=O)[C@@H](CC(C)C)NC(=O)[C@@H](CO)NC(=O)[C@@H](CCCNC(=N)N)NC(=O)[C@@H](CO)NC(=O)[C@H](N)Cc1ccccc1)C(=O)NCC(=O)NCCCCCC(=O)N[C@H](CCCNC(=N)N)C(=O)N[C@H](CCCNC(=N)N)C(=O)N[C@H](CCCNC(=N)N)C(=O)N[C@H](CCCNC(=N)N)C(=O)N[C@H](CCCNC(=N)N)C(=O)N[C@H](CCCNC(=N)N)C(=O)N[C@H](CCCNC(=N)N)C(=O)N[C@H](CCCNC(=N)N)C(=O)NCC(=O)N[C@@H](CS)C(=O)O — time to PI leakage (KG-1a; 10 µM, 37 °C, 10% FBS): ≤ 20 min
COc1cc(CNC(=O)C[C@H](C)CCC=C(C)C)ccc1OCc1cn(-c2ccc(C#N)cc2)nn1 — growth percent (SK-OV-3 ovarian cancer cells; SRB; 10 µM, 48 h): 82.4%
CNC[C@H](O)c1cccc(O)c1 — minimum effective concentration (hiPSC cardiac tissues 3D; active force; 15 min per concentration, paced at 1 Hz serum-free): 0.3 µM
COc1cc(CNC(=O)C[C@H](C)CCC=C(C)C)ccc1OCc1cn(-c2ccccc2[N+](=O)[O-])nn1 — growth percent (HOP-92; SRB; 10 µM, 48 h): 57.5%
O=Cc1c(O)ccc2ccccc12 — log2 fold change (HUVEC; RNA sequencing, refers to: ANGPT2; 75 µM, 24 h; reference: DMSO): -3.38

Excerpt of the above:
Cc1c(C)n(-c2c(C(C)C)cccc2C(C)C)c(=[Se])n1-c1c(C(C)C)cccc1C(C)C.[Cl][Au] — resistance factor (A2780 ADR; MTT; reference: A2780 ADR over A2780): 0.6
Cc1nn(-c2ccc(S(=O)(=O)N[C@H](CO)CC(C)C)cc2)c2nn3nnnc3nc12 — apoptotic cells (HT-29; AO/EB staining; 2 µM, 24 h): 32.4 ± 3.75%
CC(=O)OC[C@H]1O[C@@H](Sc2sc(C(=O)c3ccc(Br)cc3)c(N)c2-c2nc3ccccc3s2)[C@H](OC(C)=O)[C@@H](OC(C)=O)[C@H]1OC(C)=O — growth (NCI-H23; SRB; 10 µM, 48 h; reference: untreated): 88.4%
